Assay results pooled from the literature.
Each line is one published result; not all experiments were run side by side. “And” joins repeats or separate records; there may be more than shown.
CDK6 with cyclin D3: Cyclin-dependent kinase 6, with cyclin D3 (CDK6, Homo sapiens, UniProt Q00534)
CDK6: Cyclin-dependent kinase 6 (CDK6, Homo sapiens, UniProt Q00534)
CDK6 with cyclin D1: Cyclin-dependent kinase 6, with cyclin D1 (CDK6, Homo sapiens, UniProt Q00534)

Structure (SMILES)	target	assay	system	conditions	how to read	quantity	result
NC(=O)[C@@H](O)C[C@H]1CCc2sc3ncnc(O[C@H]4CC[C@H](N5CCOCC5)CC4)c3c21	CDK6 with cyclin D3	enzyme activity, inhibitor		10 µM		inhibition	5%
Cc1cccc(O[C@H]2CCC[C@@H](C(C)CNCc3ccncc3)C2)c1 (relative stereo)	CDK6 with cyclin D3	enzyme activity, inhibitor		1 µM		inhibition	4%
C=CC(=O)Nc1cccc(-c2cnc3[nH]cc(C(=O)NC(C)(C)C)c3n2)c1	CDK6 with cyclin D3	kinase activity		0.1 µM		inhibition	13% and 16%
O=C(Cc1ccc(OCc2ccccc2)cc1)NC1(C(=O)O)CCN(C(=O)c2ccc(-c3cccc(Cl)c3)cc2)CC1	CDK6 with cyclin D3	enzyme activity, inhibitor		10 µM		activity vs control	116%
Cc1cc(C)nc(Nc2ccc([C@@H]3CCCN(C(=O)/C=C/c4csc(C)n4)C3)nc2)n1	CDK6	enzyme activity, inhibitor, ADP detection		1 µM		activity vs control	23%
NC(=O)C[C@H]1CCc2sc3ncnc(O[C@H]4CC[C@H](N5CCOCC5)CC4)c3c21	CDK6 with cyclin D1	enzyme activity, inhibitor		10 µM		inhibition	3%
CCn1cc(C(=O)O)c(=O)c2c(N)c(F)c(NC3CCCCC3)cc21	CDK6 with cyclin D3	kinase activity		0.1 µM, with: ATP at Km		inhibition	-2%
C[C@H]1CN(C(=O)c2cn(-c3ccnc(N)n3)c3cc(C#CC4(O)CCCCC4)ccc23)CCN1	CDK6 with cyclin D1	enzyme activity, inhibitor		1 µM		inhibition	7%
Cc1nn(C)c(C)c1/C=C/C(=O)N1CCC[C@H](Cc2ccc(Nc3ccccn3)nn2)C1	CDK6	enzyme activity, inhibitor, ADP detection		1 µM		activity vs control	12%
Nc1ncc(-c2cc(-c3cnn(CC(F)(F)F)c3)ncc2F)nc1C(=O)NC1CNCC(F)C1 (stereo not drawn)	CDK6 with cyclin D3	enzyme activity		1 µM	reference: DMSO control	remaining activity	57.5%
O=c1c(-c2ccc(Cl)c(CN3CCOCC3)c2)coc2cc(O)ccc12	CDK6 with cyclin D3	enzyme activity, inhibitor		1 µM		remaining activity	100%
CS(=O)(=O)Nc1cccc(-c2csc3cnc(Nc4ccc(N5CCN(CCCCCOc6cccc7c6C(=O)N(C6CCC(=O)NC6=O)C7=O)CC5)cc4)nc23)c1 (stereo not drawn)	CDK6	probe labelling, inhibitor, KiNativ chemoproteomics	MOLT-4	1 µM		inhibition	91.2%
CN1C[C@@H](c2c[nH]c3cc(Br)ccc23)NC[C@@H]1c1c[nH]c2cc(Br)ccc12	CDK6 with cyclin D3	enzyme activity, inhibitor		10 µM		remaining activity	102%
COc1ccc(C(=O)/C=C/c2ccccc2-c2c[nH]c3ccc(C#N)cc23)c(O)c1	CDK6 with cyclin D3	enzyme activity, inhibitor		20 µM		inhibition	2%
C=CC(=O)N1Cc2nc(-c3cc(-c4cc(Cl)cnc4Cl)c(F)cc3F)n(-c3ccncn3)c2C1	CDK6 with cyclin D1	cell-free assay, inhibitor		1 µM		inhibition	9.9%

For quick reference, copied from above:
Structure (SMILES)	target	assay	system	conditions	how to read	quantity	result
NC(=O)[C@@H](O)C[C@H]1CCc2sc3ncnc(O[C@H]4CC[C@H](N5CCOCC5)CC4)c3c21	CDK6 with cyclin D3	enzyme activity, inhibitor		10 µM		inhibition	5%
